# Assay results pooled from the literature.
# Each numbered part is a random draw from the data of one study; scales do not carry over between parts.

# Set 1 — technique: competition protein-binding microarray; form: double-stranded DNA, one strand shown; sample: in vitro; tested at: 2 µM; with: Pho4 competitor, 0.05 µM; direction: higher = stronger binding
# Target: Centromere-binding protein 1, full length, His-tagged (CBF1, Saccharomyces cerevisiae, UniProt P17106, residues 1-351)
# Chain of UniProt P17106 (whole entry, looked up): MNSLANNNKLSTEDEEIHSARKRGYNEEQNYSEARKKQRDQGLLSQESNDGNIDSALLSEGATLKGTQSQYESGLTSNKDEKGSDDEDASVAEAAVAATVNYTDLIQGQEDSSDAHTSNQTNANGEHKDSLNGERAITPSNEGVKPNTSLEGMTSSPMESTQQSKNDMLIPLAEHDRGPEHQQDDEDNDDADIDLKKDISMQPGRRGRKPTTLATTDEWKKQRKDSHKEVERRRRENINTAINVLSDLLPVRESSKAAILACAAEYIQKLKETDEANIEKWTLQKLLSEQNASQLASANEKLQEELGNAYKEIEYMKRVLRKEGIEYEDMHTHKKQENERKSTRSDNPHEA
# Notes: whole 60-bp probe, lowest competitor level
Oligonucleotide,fluorescence intensity [a.u.]
ACATTGACGTATTTTCACGTGATGGGCCTCACTGCGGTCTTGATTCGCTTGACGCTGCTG,2070
AAAGCGGTAATTTATCACGTGTTTTCACATATCTATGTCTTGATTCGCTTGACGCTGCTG,4940
GTCTTGTCTCATTGTCACTAAACTTTCCCCACTTCAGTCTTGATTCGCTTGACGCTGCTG,82.4
AAAGCGGTAATTTTTCACGTGAACTCACATATCTATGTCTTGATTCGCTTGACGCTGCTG,1060
TCGGTCCTTAAAAGTCAGCTGACTGGGGCCGTCGCTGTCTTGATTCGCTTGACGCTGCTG,1310
CTTCTGTAAATTTTTCACGTGGAATGACGCGCCCCGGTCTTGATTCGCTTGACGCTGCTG,429
CGCCGACTCTGCGCATTCGTGGCCGCTGCTCACTCCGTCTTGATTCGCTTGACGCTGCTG,49.1
CTTCTGTAAATTTGGATGGTGGGTGGACGCGCCCCGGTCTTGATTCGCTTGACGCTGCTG,101

# Set 2 — technique: RNA Bind-n-Seq; form: RNA; sample: in vitro; tested at: not given; notes: RNA with constant flanks, ends assumed; baseline: input RNA pool; direction: higher = stronger binding
# Target: RING finger protein unkempt homolog, zinc fingers 1-6, GST-SBP tag (UNK, Homo sapiens, UniProt Q9C0B0, residues 30-357)
# Chain of UniProt Q9C0B0 (30-357, looked up): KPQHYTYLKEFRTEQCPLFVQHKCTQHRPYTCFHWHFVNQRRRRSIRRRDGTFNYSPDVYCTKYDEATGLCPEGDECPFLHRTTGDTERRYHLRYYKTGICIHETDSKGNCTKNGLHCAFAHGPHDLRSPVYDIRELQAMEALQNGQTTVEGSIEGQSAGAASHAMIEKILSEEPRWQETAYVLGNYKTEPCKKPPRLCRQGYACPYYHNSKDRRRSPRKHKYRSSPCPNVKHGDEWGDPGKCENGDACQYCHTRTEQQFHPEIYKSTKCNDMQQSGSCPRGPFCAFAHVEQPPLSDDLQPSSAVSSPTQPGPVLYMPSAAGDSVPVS
Oligonucleotide,bound/input enrichment [ratio]
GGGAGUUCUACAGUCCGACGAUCCUUACAAAUAAGUACUUAAAACAGAGCUUAAUGGGUAAAGCAACAGCUGUGUAAUCACAAACCCGAUGCAGAGGAGGUCUUGCCAGCACUCCAAAAUCUCUGUGUGUCCCCUCUUGACACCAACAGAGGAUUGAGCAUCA,0.142
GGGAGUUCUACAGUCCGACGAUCGUGUUGAACUUCACAGCCUUGCUCAUUGAGUACAGCUUUUCCCGGCAUCUGUACAGUUCCACCGAGCAUUUGACAACUUUAUUGGCUUCCUCUGAUAUGCAAGUGGUGCUGGCAGUCCUCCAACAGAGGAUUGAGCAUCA,0.202
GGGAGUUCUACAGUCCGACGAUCUGUGGCUGCUUUCUUUGGUGCCCUCCCCUCACCCCACUGUAGCUGUGACGUGUUGCCGUUUUCCGAUGUUUGUAAAAUGUUUAAAAAAAUGUUAAAAGGAAAAAAGUGAAAAUAACAAAACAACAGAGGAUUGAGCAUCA,0.508
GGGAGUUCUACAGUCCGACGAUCUUCGAUGUGAGAAUUGAACGAGAUGCACAAGAAAUGGCUGAUAGUUUAGGAGUUAGAAUUUUCCGUGCAGAAAUUAUUUAUCAUUUAUUUGAUGCCUUUACAAAAUAUAGACAAGACUACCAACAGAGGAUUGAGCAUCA,12.3
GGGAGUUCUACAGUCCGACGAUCGAAAUUUCCUUGUAUAUCCCCAAAAUGCUAACUGAAGAACGCCAUCUUCAUGAACUUGACACCGUGCCUCCUUUACCUUUUUUUCCUAAGGCUCACACCGAAACCUCCAGGGCCAAGUGACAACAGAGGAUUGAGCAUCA,0.373
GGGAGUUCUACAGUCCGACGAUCGAACCUGAGCCAGCAGAAGAGUACACUGAGCAAAGUGAAGUUGAAUCAACAGAGUAUGUAAACCGACAGUUCAUGGCAGAAACACAGUUCACCAGUGGUGAAAAGGAGCAGGUAGAUGAGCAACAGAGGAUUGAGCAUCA,0.258
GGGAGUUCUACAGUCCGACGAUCUAAUGUUCUUAGAAAAGAAUUCUCAUUCAUCUUCCCAUAGUGAAAUUCUCUAGCACUGUAUUCCGAUUCUGGAUUUUUAUAAUUCAUGCUUAAUGUAUUAGACAUUUUUAGCCCAUAAUUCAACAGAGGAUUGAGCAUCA,11.2
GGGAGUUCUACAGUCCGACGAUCCGGCUAAAGAUUGACUUUGGGGAAGCUGCCAGGGCAGAUGAUGCCCGGCAAUUAUUUGUUUCCGCUGGCAGUGCUGAAGAAGGAGUCAUGACUCCAGAACUAGCAGGAGUGAUUAAACGGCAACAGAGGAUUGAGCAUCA,0.251

# Set 3 — technique: aptamer microarray, sandwich; form: DNA with 2'F-ANA; sample: in vitro; tested at: 200 nM; with: Cy3 exosite-II aptamer, 400 nM; direction: higher = stronger binding; oligonucleotide: GGTTGGTGTGGTTGG
# Target: Prothrombin, mature alpha-thrombin (F2, Homo sapiens, UniProt P00734)
# Notes: whole 15-mer aptamer, many near background
Modification,mean fluorescence intensity [a.u.]
2'F-ANA at 3 5 6 7 8 10 11 12 13 14,56.1
2'F-ANA at 5 7 10 12 13 14,43.8
2'F-ANA at 8 10 13 14 15,119
2'F-ANA at 2 3 4 7 12 13 15,817
2'F-ANA at 2 3 4 7 8 9 10 11 13 14 15,161
2'F-ANA at 1 6 10 11 12 13 14,49
2'F-ANA at 1 3 5 6 9 11 12,98.9
2'F-ANA at 1 3 5 9 10 13,47.6

# Further values, each from its own experiment
SMILES,test system,conditions,endpoint,value
CN(C(=O)CN1N=C(c2ccccc2)Cn2c(cc3ccccc32)C1=O)C1CCCCC1,"human, microsomes or S9","2 µM, 0.5 h",remaining compound,1.65%

# Excerpt of the above (set 2):
Oligonucleotide,bound/input enrichment [ratio]
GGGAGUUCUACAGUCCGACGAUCCUUACAAAUAAGUACUUAAAACAGAGCUUAAUGGGUAAAGCAACAGCUGUGUAAUCACAAACCCGAUGCAGAGGAGGUCUUGCCAGCACUCCAAAAUCUCUGUGUGUCCCCUCUUGACACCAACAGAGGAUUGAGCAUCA,0.142
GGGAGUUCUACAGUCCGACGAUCGUGUUGAACUUCACAGCCUUGCUCAUUGAGUACAGCUUUUCCCGGCAUCUGUACAGUUCCACCGAGCAUUUGACAACUUUAUUGGCUUCCUCUGAUAUGCAAGUGGUGCUGGCAGUCCUCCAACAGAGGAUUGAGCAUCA,0.202
